# Assay results of several laboratories.
# Each numbered part is a random draw from the data of one study; scales do not carry over between parts.

# Set 1
# Target: Max dimerization protein 1, bHLH-zipper, MAX partner unstated (MXD1, Homo sapiens, UniProt Q05195, residues 56-136)
# Method: protein-binding microarray
# Molecule type: double-stranded DNA, one strand shown
# Medium: in vitro
# Concentration: not given
# Notes: k-mer, scored over probes, only values ≥0.25
# Reading: higher = stronger binding
# Construct (chain): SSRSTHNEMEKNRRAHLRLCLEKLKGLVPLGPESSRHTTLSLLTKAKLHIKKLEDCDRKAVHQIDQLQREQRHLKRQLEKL
Sequence,E-score
AACATGAT,0.273
ACACGCGG,0.451
CCTCGCAC,0.306
ACCACGTG,0.49
CCCACGAG,0.39
ATATGTGG,0.274
GCATGGAA,0.414
ACATGAGT,0.319
ATCGTGCG,0.289
CGTGGAAC,0.252
ATGAGGGG,0.355
CGCACGCC,0.315
CCCCTCTC,0.254
ACATGCCC,0.364
GCATCCGC,0.254
CGTGAGAG,0.262
CGCCCCAA,0.287

# Set 2
# Target: RNA binding protein fox-1 homolog 2, RRM domain, GST-SBP tag (RBFOX2, Homo sapiens, UniProt O43251-10, residues 100-194)
# Method: RNA Bind-n-Seq
# Molecule type: RNA
# Medium: in vitro
# Concentration: 365 nM
# Notes: natural RNA segment, single round, ends assumed
# Relative to: no-protein control
# Reading: higher = stronger binding
# Shared flanks, not repeated: GGGAGUUCUACAGUCCGACGAUC … UGGAAUUCUCGGGUGCCAA
# Target sequence (chain): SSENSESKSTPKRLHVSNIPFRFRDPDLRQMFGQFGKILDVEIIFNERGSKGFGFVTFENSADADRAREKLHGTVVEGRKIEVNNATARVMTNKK
Sequence,RBNS enrichment (R)
GUGACAGUAAUGGUUAUUACAAUAAAAAUAAUAAAAUCACCAUCAUUCUAUUUUUAACCAAAAGUAUACAUUUUACUUUGGCAUGAAAAAUGAUCCCCUUGACUGCAUCA,0.382
CCUCCCUUCCCCAAGGAUCCACUCCCCCAGCUCCUUUAGAGAAUGGCUACUGCUGAGUCCUUUGGGGUUGAGGGAGAUGGGAGCUAGGGGGAGGGGAGGGAGAUGUCUUG,0.224
UUAGCAGACUCUUUGUGGACGAGUGAAUUUCACAAACAGCACAAUUUCAGAAGAAAUCGAGGGCACAGGCCCUCACUUUUCUUCUUUUGACGCAUCAUCCUGUGAUGUUG,0.547
GUGGAAGACUACCUACAUUAGCUAUGCAUUUCAAGAGCUCACACUUAUAUUGUGGCAUAUAGUCAACAUGGAAGUAGACCAGCUCUGCUGAUUUGAAAUUUAGAUUUUUU,0.319
UUUUCAGUUCUCAUCCUCUCCAUCCCAAUCCAGUAUAUCAAUCAACUCUAACUCGGAGACGUCUAGCUGGCAAUGUUUCUAAAACUUUCACUGGAUUUCUUUAGACAUUG,0.428
UGAUUAUUAAGCAGGGUGGAAGUUCAGUAUUUUGUCAUUUAAAAAGAUUAGUUAUAUAAUGUCUGCUUCCAGCCAGUGAGAAACAUCUAGCCAUACCUUUCUUAUGCAAG,0.444
CCCCCGCACCAUUGGUUGUGUAUCACUUUCACUUUACACUUGCAUGUUCUACUUGUCAGGGCUGGAACUAUUGUAUAGAAGAUAAUAUGAUUGUGACUUCUAGUUCUUUU,4.59
UCAAAAUUUCCUUGAGACUCUUUAGCAUUCAUACUUUGGGGUUAAAGGAGAUUCCUCAGACUCAUCCAGCCCUUGGGUGCUGACCAGCAGAGUCACUAGUGGAUGCUGAA,0.272
AGGAUUGUGGGAGGCUUCACAACCCCUGCUUUCCUGACUUCCUCUUCUGCCCAACACUGGGUGCCCCUUCCCAGUUUCCCAGCAGGGGCUUCAUGGGCCACCGUCAGUGG,0.21
CACCCCCUCCUCCCCAUCCCACCCUUUGGAAACUCCCCAUUGUCACUGAGAACCACCAAAUCUGACUUUUACAUUUGGUCUCAGAAUUUAGGUUCCUGCCCUGUUGGUUU,0.669
AAGCACAGCCUUCCCUGUUCCGUCCCAGCGGGAGCUGGUGUUAGGGGUCCCAAGGUUGCCACCCACGUGCCCAGCUGUCCCACGCUGCAGCGCAGACGGCCACGCCCACA,0.255
UCUAGAUAAGCUAGGAUAUUAAUCCAGAGUUACAUUACUGAGAAUUGAGUAGUAUAAGUAGGAUGUUUUUAUUACUUGGUCAUAAUGAAAAUAAUUUGUAAAAUGUCAUU,9.55

# Set 3
# Target: RING finger protein unkempt homolog, zinc fingers 1-6, GST-SBP tag (UNK, Homo sapiens, UniProt Q9C0B0, residues 30-357)
# Method: RNA Bind-n-Seq
# Molecule type: RNA
# Medium: in vitro
# Concentration: not given
# Notes: RNA with constant flanks, ends assumed
# Relative to: input RNA pool
# Reading: higher = stronger binding
# Shared flanks, not repeated: GGGAGUUCUACAGUCCGACGAUC … CAACAGAGGAUUGAGCAUCA
# Target sequence (chain): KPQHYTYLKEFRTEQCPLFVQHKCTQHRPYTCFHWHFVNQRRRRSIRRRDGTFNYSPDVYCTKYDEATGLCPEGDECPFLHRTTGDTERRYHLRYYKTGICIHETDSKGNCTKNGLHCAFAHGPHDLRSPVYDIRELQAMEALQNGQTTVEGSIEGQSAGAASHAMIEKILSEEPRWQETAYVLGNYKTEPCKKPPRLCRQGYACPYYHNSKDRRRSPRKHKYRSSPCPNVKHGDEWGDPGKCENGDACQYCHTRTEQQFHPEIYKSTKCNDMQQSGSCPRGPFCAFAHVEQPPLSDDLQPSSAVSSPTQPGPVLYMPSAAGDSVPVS
Sequence,bound/input enrichment
GCUGCUCAGAUAAACGGUAAAACAGAAUCUAGUUCUGUGGUUCGAACCAGAAGCAACCGAGUGGUUGCCGAUCCAGUUGUCACUGAGCAACCAUCUACUUCUUCAGCUGCAAAGACUUUU,0.103 ratio
GAGGAAGAGAAUGCUGUUUUAAAGUUCCCUGAGCAGGCAGGGACCCUGCAGAAUGCAACUACCCGCAGCUCCCUGACAGCACAUCUCAGAAGCCUCUCCAAAGGCGAAUCCCCUGUGGCU,0.0949 ratio
GAGCCACCAUACAGAGUACCUAGGGAUGAUUGGGAAGAAAAAAGGCACUUUAGAAGAGACCGUUUUGAUGAUCGUGGUCCUAGUCUCAACCCAGUGCUUGAUUAUGACCAUGGAAGUCGU,0.217 ratio
GAAUUUUGUGCAUUUUCUCAGACAUUGCAACCUCAGAACAGGGAUGCUUUUUUCAAAACCUCCGCAAAAUUGGGAAUUCUUCCAGCUCUUGAAAUUGUAAUGGGCAUGGAUGACUUGCAA,0.174 ratio
CAGCACCCCAUCAAACCAGUGGUUCAUCCAACCGCUACCCCAAGCACUGUUCCUUCCCGUCCAUUUACGCUUCAGUCUGAUCACCAGCCAAAGAAAUCAUUUGAUGCUAAUGGAGCAUCU,0.329 ratio
UCAGGUACUUUGGAGGCCACAGAAAAGGAACCAGUGAACAAGGAAUCGGAGGAAAUGAGUGCCGUAUUUAUUUCUAAUUUGCCUAACAAAGGAUAUUCUACAGAAGAAAUUUACAACUUA,0.412 ratio
AAUUUUCUUUUUUGGCCCUAGGCUGGUUGGGACCUCUACAGCUUCAUUCUUUCACCAUUAAACCGUGGCCUUUUUCAGUAUUUUCCCUCUUCCCCUUUAUAAAUUAUGCUAAAGCCACAA,1.75 ratio
GCAGAAUUUGCUGAACUAAAAACACAAAUAGAGAAAAUGAGACUAGAUUACCAACACGAAACCGAAAAUUUGCAGAAUCAACAAGACUCUGAACGGGCUGCCCAUGCUAAAGAGAUGGAA,2.47 ratio
GAACAGUCCCAGGGCUCCACCACAAAUAGUGACUGGAUGAAAAACCUCAUCUCCCCUGACUCCGGAGUUGUAUUUCUCAAUGUACCUGAAAAUCUCAAAAAUCCAGAGCCAAACAUCAAG,0.335 ratio
UUAUGGGUGUAAGAGGUUUGCAGGGGUUUGUGGGGAGUACGUGCCCACACAUAUGUACCACCGUCAAUAUCCACGAGCUGGCAGAGCGUCACCGAAACAAGUACCCUGGAUGUACGCCUA,0.127 ratio
AAACCUGUAGGGUUUGGAGAAGAGUUUGACGAGGAUGAGCUCAUGGCGGAAUUAGAAGAACCCGAACAGGAGGAACUAGACAAGAAUUUGCUGGAAAUCAGUGGACCCGAAACAGUCCCU,0.324 ratio

# Set 4
# Target: Fragile X messenger ribonucleoprotein 1, C-terminal low-complexity region (Fmr1, Mus musculus, UniProt P35922)
# Method: RNA Bind-n-Seq
# Molecule type: RNA
# Medium: in vitro
# Concentration: 200 nM
# Notes: whole 134-nt RNA, ends assumed
# With: 150 mM LiCl
# Relative to: input library
# Reading: higher = stronger binding
# All molecules: 7-deaza-guanosine replaces G
# Shared flanks, not repeated: GGGAGUUCUACAGUCCGACGAUC … UGGAAUUCUCGGGUGUCAAGG
Sequence,log2 enrichment
UUGGGUUCAAUAUACGGAGAGUGCCCUGUGCCAAAGCCACGAGUUGAUCGUCCAAGAAAAGUUCCUGUGAUACAAGAGGAGAGGGCAAUG,-1.82
ACCAUGCAGGUGGGCAUCUUUGGGAAGUGGGGCAAGGGGGGGAUAGGGAGGGGGGUAACACUUUGGGAACAGGUGGGCCCAGGUCGUUUC,1.68
AAGUCCUGUGCUACACAUCGUAUGUACCGAAUCGGAAAAGGAAAAGGGAAAAGGGGAAAGUAUUAUGUUACGCCGUUCGGAUCUGCACUU,-0.558
GUGCUACACAUCGUAUGUACCGAAUCGGGGAAAAAAAGGGGAAAAAAAGGGGUUUUUUUGGGGAAAGUAUUAUGUUACGCCGUUCGGAUC,-0.649
GUCCUGUGCUACACAUCGUAUGUACCGAAUCGGGGAAAGGGGUGGGGUUUUUUUGGGGAAAGUAUUAUGUUACGCCGUUCGGAUCUGCAC,-0.212
CAAGUCCUGUGCUACACAUCGUAUGUACCGAAUCGGGUUUGGGUUUGGUUUGGGGAAAGUAUUAUGUUACGCCGUUCGGAUCUGCACUUC,-0.908
CAAGUCCUGUGCUACACAUCGUAUGUACCGAAUCGGGAAAGGAAAGGGGAAAGGGGAAAGUAUUAUGUUACGCCGUUCGGAUCUGCACUU,-0.645
AGUCCUGUGCUACACAUCGUAUGUACCGAAUCGGGAAAAAAAGGGAGGGUUUUUGGGAAAGUAUUAUGUUACGCCGUUCGGAUCUGCACU,-2.39
GUGAAUCAAAAACUCUGGUUUUAAGCAACCUCUCCUACAGUGCAACAGAAGAAACUCUUCAGGAAGUAUUUGAGAAAGCAACUUUUAUCA,1.82
UGGCCCUGGUGGCAUGCGGGGAGGAAGAGGUGGCCUCAUGGAUCGUGGUGGUCCCGGUGGAUUGUUCAGAGGUGGCCGUGGUGGAGACAG,0.4
CACAGACAACACGCACCCACACAGACACAGAGGGAAGGGGUUGGGAUGGGGACAGGGUGCACAGCAGGGCGGGGUAGGACCCCAGCCCAU,-0.0664

# Set 5
# Target: PABPC1L2, full length, GST fusion (mouse, UniProt A0ABA7IW68)
# Method: RNAcompete
# Molecule type: RNA
# Medium: in vitro
# Concentration: 20 nM
# Notes: 7-mer, probes averaged, single round
# Relative to: mean of 7-mers
# Reading: higher = stronger binding
# Target sequence (chain): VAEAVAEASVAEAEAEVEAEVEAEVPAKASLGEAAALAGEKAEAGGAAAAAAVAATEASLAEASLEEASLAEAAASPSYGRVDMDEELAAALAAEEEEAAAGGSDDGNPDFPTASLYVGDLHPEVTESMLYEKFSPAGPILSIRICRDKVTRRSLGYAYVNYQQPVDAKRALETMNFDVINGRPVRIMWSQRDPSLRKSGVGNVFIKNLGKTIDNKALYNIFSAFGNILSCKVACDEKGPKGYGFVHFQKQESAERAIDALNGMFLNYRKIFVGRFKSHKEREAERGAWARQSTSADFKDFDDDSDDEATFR
Sequence,7-mer Z-score
CUCACUC,-0.282
GAUAGUC,-0.3
GGACCCA,0.0551
CUCGCAU,-0.387
CCGGGCA,0.122
AUACGUC,-0.237
AUUAAUA,-0.146
AGCUGAU,-0.0935
CAUGUUG,-0.238
GUGUGAC,0.0207
CGACCAU,-0.137
AUCUUCA,-0.22
GAUUGUA,-0.191
CAUAGGU,-0.079
GGGUCUA,0.135
GAGCGCA,-0.119
CUCCUAA,-0.0428
UCGUUCG,-0.552
GUCAGCC,-0.403
CGUGAAU,-0.238
CAGGUCU,-0.173
UCCACGU,-0.383
CGCCAAA,0.238
GGCUAAU,-0.141
UAAGAGU,-0.139
